Measurements collected from several papers.
Compare with care: the assays were run in different laboratories. “And” joins repeats or separate records; there may be more than shown. ± marks the error that the study gave. Converted amounts (≈) assume the structure as drawn.

| Compound | target or system | test | system | setting | how to read | measurement | result |
| --- | --- | --- | --- | --- | --- | --- | --- |
| CN(CCO)CCO.O=C(O)C(Cl)Cl | Amaranthus retroflexus | herbicidal activity | – | 15 mg/mL, 21 days, post-emergence greenhouse | – | inhibition | -58% |
| CSCC[C@H](N)C(=O)N[C@@H](C)C(=O)N[C@@H](CCCNC(=N)N)C(=O)N[C@@H](CCCNC(=N)N)C(=O)N[C@@H](CC(=O)O)C(=O)N[C@@H](CCCCN)C(=O)N[C@H](C(=O)N[C@@H](CC(=O)O)C(=O)N[C@@H](Cc1ccccc1)C(=O)N[C@@H](C)C(=O)N[C@@H](CCCNC(=N)N)C(=O)N[C@@H](CCCNC(=N)N)C(=O)N[C@@H](CCCNC(=N)N)C(=O)N[C@@H](CCCNC(=N)N)C(=O)NCCCCCC(=O)NCCCCC(NC(=O)CCCCCNC(=O)[C@H](CCCNC(=N)N)NC(=O)[C@H](CCCNC(=N)N)NC(=O)[C@H](CCCNC(=N)N)NC(=O)[C@H](CCCNC(=N)N)NC(=O)[C@H](C)NC(=O)[C@H](Cc1ccccc1)NC(=O)[C@H](CC(=O)O)NC(=O)[C@@H](NC(=O)[C@H](CCCCN)NC(=O)[C@H](CC(=O)O)NC(=O)[C@H](CCCNC(=N)N)NC(=O)[C@H](CCCNC(=N)N)NC(=O)[C@H](C)NC(=O)[C@@H](N)CCSC)[C@@H](C)O)C(=O)NCCCCC(NC(=O)C(CCCCNC(=O)CCCCCNC(=O)[C@H](CCCNC(=N)N)NC(=O)[C@H](CCCNC(=N)N)NC(=O)[C@H](CCCNC(=N)N)NC(=O)[C@H](CCCNC(=N)N)NC(=O)[C@H](C)NC(=O)[C@H](Cc1ccccc1)NC(=O)[C@H](CC(=O)O)NC(=O)[C@@H](NC(=O)[C@H](CCCCN)NC(=O)[C@H](CC(=O)O)NC(=O)[C@H](CCCNC(=N)N)NC(=O)[C@H](CCCNC(=N)N)NC(=O)[C@H](C)NC(=O)[C@@H](N)CCSC)[C@@H](C)O)NC(=O)CCCCCNC(=O)[C@H](CCCNC(=N)N)NC(=O)[C@H](CCCNC(=N)N)NC(=O)[C@H](CCCNC(=N)N)NC(=O)[C@H](CCCNC(=N)N)NC(=O)[C@H](C)NC(=O)[C@H](Cc1ccccc1)NC(=O)[C@H](CC(=O)O)NC(=O)[C@@H](NC(=O)[C@H](CCCCN)NC(=O)[C@H](CC(=O)O)NC(=O)[C@H](CCCNC(=N)N)NC(=O)[C@H](CCCNC(=N)N)NC(=O)[C@H](C)NC(=O)[C@@H](N)CCSC)[C@@H](C)O)C(N)=O)[C@@H](C)O (stereo partly drawn) | – | micro-CT of femur | mouse C57BL/6 female, RANKL-induced bone loss, femur | intraperitoneal, 130 mg/kg, 50 h, together with: GST-RANKL 3 mg/kg co-injected, CR4-WHD-tet 150 mg/kg | – | trabecular separation | 1200 µm |
| CC[C@H](C)[C@H](NC(=O)[C@H](CC(C)C)NC(=O)[C@H](CC(C)C)NC(=O)[C@H](CC(=O)O)NC(=O)[C@@H](NC(=O)[C@H](CCC(=O)O)NC(=O)[C@H](CCCCN)NC(=O)[C@H](Cc1ccc(O)cc1)NC(=O)[C@H](CCCCN)NC(=O)[C@H](Cc1c[nH]cn1)NC(=O)CNC(=O)CN)[C@@H](C)O)C(=O)N[C@@H](CC(C)C)C(=O)N[C@@H](Cc1ccccc1)C(=O)N[C@@H](CCCCN)C(=O)N[C@@H](CC(=O)O)C(=O)N[C@@H](CC(=O)O)C(=O)N[C@@H](Cc1ccc(O)cc1)C(=O)N[C@@H](Cc1ccccc1)C(=O)N[C@@H](C)C(=O)N[C@@H](CCCCN)C(=O)N[C@@H](CCCCN)C(=O)N[C@@H](CC(N)=O)C(=O)N[C@@H](CCC(=O)O)C(=O)N[C@@H](CCC(=O)O)C(=O)N[C@@H](CCCNC(=N)N)C(=O)N[C@@H](CCCCN)C(N)=O | HCV IRES RNA | MALDI-TOF mass spectrometry, item: 5'-hydroxyl products | hepatitis C virus | – | – | initial cleavage rate | 2.3 ± 0.1 %/min |
| Cc1nc2ccc(OC(F)(F)F)cn2c1C(=O)NCc1ccc2oc(-c3ccc(Cl)cc3)nc2c1 | Mycolicibacterium smegmatis | – | – | 72 h | – | MIC | > 100 µM |
| Cc1cc(C(=O)Nc2nc3cccc(C)c3n2[C@H]2CCCCN(C(=O)/C=C/CN(C)C)C2)ccn1 | Trypanosoma brucei | cell growth, Alamar Blue | 2T1 overexpressing Tb927.8.5730 | – | relative to: parental 2T1 | EC50 fold shift | 0.74 fold and 0.82 fold |
| CC(C)C[C@@H]1NC(=O)[C@@H]2CSSC[C@@H](C(=O)NCC(=O)O)NC(=O)[C@H](Cc3ccccc3)NC(=O)CNC(=O)[C@H](CC(N)=O)NC(=O)[C@@H]3CCCN3C(=O)CNC(=O)[C@@H]3CSSC[C@H](NC(=O)[C@H](CCCNC(=N)N)NC(=O)[C@H](CC(N)=O)NC(=O)[C@H](Cc4c[nH]cn4)NC(=O)[C@H](CCCCN)NC(=O)[C@H](CC(C)C)NC(=O)[C@H](CCCCN)NC(=O)[C@H](Cc4c[nH]cn4)NC(=O)[C@H](CC(N)=O)NC(=O)[C@H](CO)NC(=O)[C@H](CCC(N)=O)NC(=O)[C@@H](NC(=O)CN)CSSC[C@H](NC(=O)CNC(=O)[C@H](C)NC1=O)C(=O)N[C@@H](C(C)C)C(=O)N3)C(=O)N[C@@H](CCCCN)C(=O)N[C@@H](CCC(N)=O)C(=O)N[C@@H](CC(=O)O)C(=O)N[C@@H](CO)C(=O)N[C@@H](CC(=O)O)C(=O)N2 | HEK293, Wnt1-transfected | Wnt signalling | – | – | – | IC50 | > 100 µM |
| CC1CCC2C(C)C(CCCOC(=O)C(Cc3ccc(N(CCCl)CCCl)cc3)NC(=O)OC(C)(C)C)OC3OC4(C)CCC1C32OO4 (stereo not drawn) | MCF-10A | cell growth or viability, CCK-8 | – | – | – | IC50 | > 50 µM |
| Cc1nc2cc(Br)ccn2c1C(=O)NCc1ccc2oc(-c3ccc(OC(F)(F)F)cc3)nc2c1 | Mycolicibacterium smegmatis | – | – | – | – | MIC90 | > 100 µM |
| O=C(O)c1ccc(-c2nc(-c3ccccc3Cl)c3sccn23)cc1 | – | – | C57BL/6 mice | dose not given, day 27, basal hematopoiesis | – | platelet count change | 112% and 96.1% and 137% and 104% |
| Cc1ccn2c(C(=O)NCc3ccccc3)c(C)nc2c1 | Mycolicibacterium smegmatis | – | – | 72 h | – | MIC | > 100 µM |
| Fc1ccc(-c2ccc(/C=C/Cn3ccnc3)cc2)cc1 | Mycobacterium tuberculosis variant bovis BCG | microbial growth | BCG | – | – | MIC50 | 1.5 µM (≈ 0.417 µg/mL) |
| CCc1nn(C)c2nc(-c3ccc(C(=O)O)cc3)nc(NCc3ccccc3)c12 | Cryptosporidium parvum | – | HCT-8 | EC90, 0 h | relative to: DMSO control | parasite number | 96.8% and 109% and 101% and 93.3% |
| COc1ccccc1-c1n[nH]c2nc(N[C@H]3CC[C@H](NS(=O)(=O)CC(C)C)CC3)ncc12 | – | bead binding, competition bead pull-down, item: LINJ.35.5300 | Leishmania donovani extract | 10 µM | relative to: vehicle | relative abundance | 0.97 |
| CC[C@H](C)[C@@H]1NC(=O)[C@H](Cc2c[nH]cn2)NC(=O)[C@H](CC(N)=O)NC(=O)[C@H](CO)NC(=O)[C@H](CCC(N)=O)NC(=O)[C@@H](NC(=O)CN)CSSC[C@@H]2NC(=O)CNC(=O)[C@H](C)NC(=O)[C@H](CC(C)C)NC(=O)[C@@H]3CSSC[C@@H](C(=O)NCC(=O)O)NC(=O)[C@H](C)NC(=O)CNC(=O)[C@H](CC(N)=O)NC(=O)[C@@H]4CCCN4C(=O)CNC(=O)[C@H](CSSC[C@H](NC(=O)[C@H](CCCNC(=N)N)NC(=O)[C@H](CC(N)=O)NC(=O)[C@H](Cc4c[nH]cn4)NC(=O)[C@H](CCCCN)NC(=O)[C@H](CC(C)C)NC1=O)C(=O)N[C@@H](CCCCN)C(=O)N[C@@H](CCC(N)=O)C(=O)N[C@@H](CC(=O)O)C(=O)N[C@@H](CO)C(=O)N[C@@H](CC(=O)O)C(=O)N3)NC(=O)[C@H](C(C)C)NC2=O | HEK293, Wnt1-transfected | Wnt signalling | – | – | – | IC50 | > 100 µM |
| O=C(NCc1cc(F)cc(F)c1)[C@@]1(O)CCN(c2ccc3[nH]ccc3c2)C1=O | – | – | sample G PDX mouse | dose not given, RTV endpoint 500% | – | median survival time | 33 days |
| CC(C)(C)C(=O)OCOP(=O)(OCOC(=O)C(C)(C)C)C1CCCN(O)C1=O (stereo not drawn) | MDA-MB-468 | – | – | – | – | log TGI | -5.26 log M |
| Nc1ccccc1C(=O)OCC#CCOC(=O)c1ccccc1N | Aspergillus fumigatus | microbial growth, broth dilution | MF5668 | – | – | MIC | 4 µg/mL |
| COc1ccccc1-c1n[nH]c2nc(NC3CCN(C(=O)Cc4ccc(F)cc4F)CC3)ncc12 | – | bead binding, competition bead pull-down, item: LMJF.21.0015 | Leishmania donovani extract | 10 µM | relative to: vehicle | relative abundance | 1.11 |
| NC[C@]1(CC(=O)O)CC[C@H]([18F])CC1 | – | PET kinetic modelling | rhesus monkey, whole brain | dose not given, together with: gabapentin pre-injection | relative to: baseline | VT change | -36% |
| Cc1cc(Oc2nc(N3CC[C@@H](c4ccncc4)C3)ncc2F)[nH]n1 | Mycobacterium tuberculosis | OD | H37Rv PurF CRISPRi knockdown | 0.25 µM, together with: anhydrotetracycline low | – | normalised growth | 2% and 1% |
| CC1(C)CC(=O)C2=C(C1)Oc1ccccc1C2C1C(=O)NC(=O)NC1=O (stereo not drawn) | 3T3-L1 pre-adipocytes | cell viability, MTT | – | 72 h | – | IC50 | > 100 µg/mL |
